Published values gathered from unrelated publications.
“And” joins repeats or separate records; there may be more than shown. Numbers after ± are the reported error.
rep main protease: Replicase polyprotein 1ab, main protease (rep, Severe acute respiratory syndrome coronavirus 2, UniProt P0DTD1)

Structure (SMILES)	tested on	test	system	conditions	scale	quantity	result
CCOC(=O)CC[C@H](NC(=O)c1ccccc1[Se][Se]c1ccccc1C(=O)N[C@@H](CCC(=O)OCC)C(=O)OCC)C(=O)OCC	rep main protease	enzyme activity, inhibitor	–	40 µM, mean of repeats	–	inhibition	66.9%
O=C(CCl)N1N=C(c2cccs2)CC1c1cccs1 (stereo not shown)	rep main protease	enzyme activity, inhibitor, fluorescence	–	50 µM, pH 7.2	–	inhibition	103%
CC1(C)C2CCC(Cn3[se]c4ccccc4c3=O)C1C2 (stereo not shown)	rep main protease	enzyme activity, inhibitor	–	40 µM, mean of repeats	–	inhibition	103%
N#C[C@@]1(c2ccc3c(N)ncnn23)O[C@H](CCl)[C@@H](O)[C@H]1O	Replicase polyprotein 1ab, nsp3 macrodomain (rep, Severe acute respiratory syndrome coronavirus 2, UniProt P0DTD1)	substrate	–	–	–	initial substrate decay rate	0.093 µM/min and 0.17 µM/min
CCCCCCCCCCCCCCCC(=O)N[C@@H](CCC(=O)NCCOCCOCCC(=O)NCCOCCOCCC(=O)NCCCC[C@H](NC(=O)[C@H](CC(=O)O)NC(=O)[C@H](CC(C)C)NC(=O)[C@H](Cc1ccc(O)cc1)NC(=O)[C@H](CCCCN)NC(=O)[C@H](CO)NC(=O)[C@H](Cc1ccc(O)cc1)NC(=O)[C@H](CC(=O)O)NC(=O)[C@H](CO)NC(=O)[C@@H](NC(=O)[C@H](Cc1ccccc1)NC(=O)[C@@H](NC(=O)CNC(=O)[C@H](CCC(N)=O)NC(=O)[C@@H](CO)NC(=O)[C@@H](N)Cc1c[nH]cn1)[C@@H](C)O)[C@@H](C)O)C(=O)N[C@@H](CCCNC(=N)N)C(=O)N[C@@H](CCCNC(=N)N)C(=O)N[C@@H](C)C(=O)N[C@@H](CCC(N)=O)C(=O)N[C@@H](CC(=O)O)C(=O)N[C@@H](Cc1ccccc1)C(=O)N[C@H](C(=O)N[C@@H](CCC(N)=O)C(=O)N[C@@H](Cc1c[nH]c2ccccc12)C(=O)N[C@@H](CC(C)C)C(=O)N[C@@H](CC(C)C)C(=O)N[C@@H](CC(N)=O)C(=O)N[C@H](C(=O)NCC(=O)NCC(=O)N1CCC[C@H]1C(=O)N[C@@H](CO)C(=O)N[C@@H](CO)C(=O)NCC(=O)N[C@@H](C)C(=O)N1CCC[C@H]1C(=O)N1CCC[C@H]1C(=O)N1CCC[C@H]1C(=O)N[C@@H](CO)C(N)=O)[C@@H](C)O)C(C)C)C(=O)O	–	–	rhesus monkey, both sexes, plasma	subcutaneous, 20 µg/kg, multiple doses, day 1	–	Cmax	9.82 ± 4.72 ng/mL
COC(=O)C(=O)/C(=C\c1ccc(-c2ccccc2[N+](=O)[O-])o1)C(=O)c1ccccc1	rep main protease	enzyme activity, inhibitor	–	10 µM	–	Vmax	14.2 ± 2.3 RFU/s
COc1cc2c(cc1OC)-c1c(OC)c(OC)cc3c1[C@H](C2)N(C)CC3	rep main protease	STD NMR, refers to: proton H-15	–	–	reference: H-8 signal	relative STD saturation	44.4%
CNC(=O)C[C@H](Cc1ccncc1)NC(=O)[C@@H](Cc1cccc(Br)c1)NC(=O)[C@@H](N)Cc1cccc(F)c1	rep main protease	3CL protease activity	–	1 µM	–	remaining activity	36.5%
CCN1C(=O)CCC1c1c(O)cc(O)c2c1O[C@H](c1cc(O)c(O)c(O)c1)[C@H](OC(=O)c1cc(O)c(O)c(O)c1)C2 (stereo partly shown)	rep main protease	surface plasmon resonance	–	–	–	Rmax	110 RU
O=c1c2cccc([N+](=O)[O-])c2[se]n1-c1ccccc1	rep main protease	thermal shift	SARS-CoV-2	main protease	–	melting temperature	36 °C
Cc1ccc(OCCN(C)C)cc1C(=O)N[C@H](C)c1cc(-c2ccco2)nc2ccccc12	Replicase polyprotein 1ab, papain-like protease (rep, Severe acute respiratory syndrome coronavirus 2, UniProt P0DTD1)	reporter gene, cell-based	–	–	–	GFP/mCherry signal ratio	0 and 64.7 and 83.4 and 72.9
O=C(NC1CCC(F)(F)CC1)C(c1cncnc1)N(C(=O)C(F)Cl)c1ccc(OC(F)(F)F)cc1 (stereo not shown)	rep main protease	enzyme activity	–	0.309 µM	–	inhibition	82.8% and 87% and 52.3%
CNC(=O)C[C@H](Cc1ccncc1)NC(=O)[C@@H](Cc1cccc(Br)c1)NC(=O)[C@@H](N)Cc1ccsc1	rep main protease	3CL protease activity	–	1 µM	–	remaining activity	28.7%
O=C(NC1CCC(F)(F)CC1)C(c1cncnc1)N(C(=O)C(F)Cl)c1ccc(-c2cncs2)cc1 (stereo not shown)	rep main protease	enzyme activity, inhibitor	–	3.8 nM	–	inhibition	8.86%
CC(=O)N[C@@H](Cc1ccc(O)cc1)C(=O)N[C@@H](CCCNC(=N)N)C(=O)N[C@@H](Cc1ccccc1)C(=O)N[C@H]1CCC[C@@H]1C(=O)N[C@@H](CCCNC(=N)N)C(=O)N[C@@H](CC(N)=O)C(=O)N[C@H]1CCC[C@@H]1C(=O)N[C@H](C(=O)N[C@@H](Cc1ccccc1)C(=O)N[C@H]1CCC[C@@H]1C(=O)N[C@@H](Cc1ccccc1)C(=O)N[C@@H](Cc1ccc(O)cc1)C(=O)N[C@H]1CCC[C@@H]1C(=O)N[C@H](C(=O)N[C@@H](CC(=O)O)C(N)=O)[C@@H](C)O)C(C)C	rep main protease	binding, SPR	–	–	–	koff	0.0121 s⁻¹
CCC1CC(c2ccc(C(=O)O)cc2C)=NN1c1ccc(C#N)c(Cl)c1 (stereo not shown)	Replicase polyprotein 1ab, nsp14 methyltransferase (rep, Severe acute respiratory syndrome coronavirus 2, UniProt P0DTD1)	–	–	–	–	lipophilic ligand efficiency	2.6

A few entries again:
Structure (SMILES)	tested on	test	system	conditions	scale	quantity	result
O=C(NC1CCC(F)(F)CC1)C(c1cncnc1)N(C(=O)C(F)Cl)c1ccc(-c2cncs2)cc1 (stereo not shown)	rep main protease	enzyme activity, inhibitor	–	3.8 nM	–	inhibition	8.86%
CC(=O)N[C@@H](Cc1ccc(O)cc1)C(=O)N[C@@H](CCCNC(=N)N)C(=O)N[C@@H](Cc1ccccc1)C(=O)N[C@H]1CCC[C@@H]1C(=O)N[C@@H](CCCNC(=N)N)C(=O)N[C@@H](CC(N)=O)C(=O)N[C@H]1CCC[C@@H]1C(=O)N[C@H](C(=O)N[C@@H](Cc1ccccc1)C(=O)N[C@H]1CCC[C@@H]1C(=O)N[C@@H](Cc1ccccc1)C(=O)N[C@@H](Cc1ccc(O)cc1)C(=O)N[C@H]1CCC[C@@H]1C(=O)N[C@H](C(=O)N[C@@H](CC(=O)O)C(N)=O)[C@@H](C)O)C(C)C	rep main protease	binding, SPR	–	–	–	koff	0.0121 s⁻¹
